Measurements of several laboratories.
Each line is one published result; not all experiments were run side by side. Values joined by “and” are separate records of one study, mostly repeats; a detail may differ. ± marks the error that the study gave.
SLC22A2: Solute carrier family 22 member 2 (SLC22A2, Homo sapiens, UniProt O15244)
UniProt O15244, sequence (whole entry, looked up): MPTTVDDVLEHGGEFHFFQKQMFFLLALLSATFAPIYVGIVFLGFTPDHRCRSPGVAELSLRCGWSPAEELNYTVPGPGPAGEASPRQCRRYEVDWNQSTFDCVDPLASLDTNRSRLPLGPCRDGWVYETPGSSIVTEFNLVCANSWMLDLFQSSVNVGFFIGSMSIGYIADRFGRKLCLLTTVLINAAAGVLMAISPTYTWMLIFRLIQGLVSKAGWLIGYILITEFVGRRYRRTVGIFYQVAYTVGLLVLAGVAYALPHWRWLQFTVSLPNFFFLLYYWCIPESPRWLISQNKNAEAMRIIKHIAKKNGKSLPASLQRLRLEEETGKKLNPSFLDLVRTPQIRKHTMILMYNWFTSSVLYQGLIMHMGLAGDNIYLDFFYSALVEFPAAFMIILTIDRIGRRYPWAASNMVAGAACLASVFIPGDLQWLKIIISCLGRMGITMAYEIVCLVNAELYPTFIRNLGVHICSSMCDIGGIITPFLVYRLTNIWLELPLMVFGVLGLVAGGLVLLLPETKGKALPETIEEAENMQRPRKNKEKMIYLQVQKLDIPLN
CYP2C19: Cytochrome P450 2C19 (CYP2C19, Homo sapiens, UniProt P33261)
UniProt P33261, sequence (whole entry, looked up): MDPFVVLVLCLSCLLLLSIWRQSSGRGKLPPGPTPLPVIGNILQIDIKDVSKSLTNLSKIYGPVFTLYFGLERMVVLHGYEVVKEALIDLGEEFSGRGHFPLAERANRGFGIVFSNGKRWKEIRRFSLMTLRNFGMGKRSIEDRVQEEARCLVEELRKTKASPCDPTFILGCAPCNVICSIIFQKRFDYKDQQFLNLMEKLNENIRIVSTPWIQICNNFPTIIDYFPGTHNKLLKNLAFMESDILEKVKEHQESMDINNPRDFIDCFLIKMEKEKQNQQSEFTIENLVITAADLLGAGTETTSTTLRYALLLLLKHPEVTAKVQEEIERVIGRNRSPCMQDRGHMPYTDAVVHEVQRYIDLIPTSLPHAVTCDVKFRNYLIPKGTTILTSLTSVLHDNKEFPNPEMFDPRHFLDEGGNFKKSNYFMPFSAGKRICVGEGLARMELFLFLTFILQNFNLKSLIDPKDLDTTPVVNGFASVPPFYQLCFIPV
SLC22A8: Organic anion transporter 3 (SLC22A8, Homo sapiens, UniProt Q8TCC7)
UniProt Q8TCC7, sequence (whole entry, looked up): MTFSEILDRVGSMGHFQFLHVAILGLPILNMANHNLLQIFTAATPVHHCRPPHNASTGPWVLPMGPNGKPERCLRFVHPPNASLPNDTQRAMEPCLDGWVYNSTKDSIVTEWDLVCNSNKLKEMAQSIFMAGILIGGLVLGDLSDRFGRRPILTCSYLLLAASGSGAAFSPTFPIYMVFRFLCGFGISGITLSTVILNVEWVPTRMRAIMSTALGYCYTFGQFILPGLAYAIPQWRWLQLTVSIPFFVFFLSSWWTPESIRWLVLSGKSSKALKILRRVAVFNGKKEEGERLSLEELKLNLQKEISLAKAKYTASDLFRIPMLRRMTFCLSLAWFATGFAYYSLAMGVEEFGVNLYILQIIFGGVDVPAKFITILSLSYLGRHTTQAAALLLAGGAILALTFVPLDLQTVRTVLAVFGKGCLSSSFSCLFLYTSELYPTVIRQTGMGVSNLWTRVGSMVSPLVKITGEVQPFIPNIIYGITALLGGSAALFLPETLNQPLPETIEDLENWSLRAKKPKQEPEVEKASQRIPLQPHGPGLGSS
CYP2E1: Cytochrome P450 2E1 (CYP2E1, Homo sapiens, UniProt P05181)
UniProt P05181, sequence (whole entry, looked up): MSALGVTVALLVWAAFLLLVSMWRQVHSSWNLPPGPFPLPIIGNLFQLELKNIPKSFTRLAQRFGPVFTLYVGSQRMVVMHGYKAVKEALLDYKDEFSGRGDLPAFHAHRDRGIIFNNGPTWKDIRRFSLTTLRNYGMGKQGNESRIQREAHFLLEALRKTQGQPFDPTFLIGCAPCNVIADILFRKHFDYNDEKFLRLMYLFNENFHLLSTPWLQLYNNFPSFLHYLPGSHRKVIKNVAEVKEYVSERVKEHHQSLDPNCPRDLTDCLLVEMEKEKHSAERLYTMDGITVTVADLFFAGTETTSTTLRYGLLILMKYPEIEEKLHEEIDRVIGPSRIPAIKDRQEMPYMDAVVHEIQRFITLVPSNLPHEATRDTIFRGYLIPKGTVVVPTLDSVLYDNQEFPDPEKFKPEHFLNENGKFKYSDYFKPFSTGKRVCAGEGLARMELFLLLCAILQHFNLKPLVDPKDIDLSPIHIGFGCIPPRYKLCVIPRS
CYP2C9: Cytochrome P450 2C9 (CYP2C9, Homo sapiens, UniProt P11712)
UniProt P11712, sequence (whole entry, looked up): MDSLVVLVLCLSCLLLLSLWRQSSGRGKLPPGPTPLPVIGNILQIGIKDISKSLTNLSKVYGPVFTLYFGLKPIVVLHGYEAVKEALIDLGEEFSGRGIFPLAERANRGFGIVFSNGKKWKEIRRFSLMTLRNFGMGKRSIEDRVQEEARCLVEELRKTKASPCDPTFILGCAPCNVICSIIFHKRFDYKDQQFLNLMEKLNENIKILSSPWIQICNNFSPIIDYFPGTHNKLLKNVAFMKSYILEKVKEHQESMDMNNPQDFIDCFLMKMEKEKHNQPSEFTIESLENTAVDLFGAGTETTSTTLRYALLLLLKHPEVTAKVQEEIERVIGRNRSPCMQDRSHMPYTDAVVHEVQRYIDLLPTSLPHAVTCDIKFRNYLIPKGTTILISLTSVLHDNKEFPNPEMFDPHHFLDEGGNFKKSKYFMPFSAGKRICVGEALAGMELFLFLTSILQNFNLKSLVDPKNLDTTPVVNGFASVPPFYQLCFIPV
Abcg2: Broad substrate specificity ATP-binding cassette transporter ABCG2 (Abcg2, Rattus norvegicus, UniProt Q80W57)
UniProt O15245, sequence (whole entry, looked up): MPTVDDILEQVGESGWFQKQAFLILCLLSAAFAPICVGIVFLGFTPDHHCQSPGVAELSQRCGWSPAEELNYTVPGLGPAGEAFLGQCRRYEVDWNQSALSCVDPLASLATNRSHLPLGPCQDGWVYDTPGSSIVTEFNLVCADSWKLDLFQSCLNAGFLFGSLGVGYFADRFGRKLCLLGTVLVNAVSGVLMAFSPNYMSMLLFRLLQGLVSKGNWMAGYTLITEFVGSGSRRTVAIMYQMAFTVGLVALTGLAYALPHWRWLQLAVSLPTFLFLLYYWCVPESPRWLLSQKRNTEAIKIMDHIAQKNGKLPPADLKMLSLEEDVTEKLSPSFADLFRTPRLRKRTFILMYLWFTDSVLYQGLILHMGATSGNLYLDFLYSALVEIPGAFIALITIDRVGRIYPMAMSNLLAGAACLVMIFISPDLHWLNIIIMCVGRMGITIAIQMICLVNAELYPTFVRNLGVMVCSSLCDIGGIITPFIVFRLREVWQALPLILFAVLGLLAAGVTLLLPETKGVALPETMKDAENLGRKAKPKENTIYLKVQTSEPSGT
UniProt Q80W57, sequence (whole entry, looked up): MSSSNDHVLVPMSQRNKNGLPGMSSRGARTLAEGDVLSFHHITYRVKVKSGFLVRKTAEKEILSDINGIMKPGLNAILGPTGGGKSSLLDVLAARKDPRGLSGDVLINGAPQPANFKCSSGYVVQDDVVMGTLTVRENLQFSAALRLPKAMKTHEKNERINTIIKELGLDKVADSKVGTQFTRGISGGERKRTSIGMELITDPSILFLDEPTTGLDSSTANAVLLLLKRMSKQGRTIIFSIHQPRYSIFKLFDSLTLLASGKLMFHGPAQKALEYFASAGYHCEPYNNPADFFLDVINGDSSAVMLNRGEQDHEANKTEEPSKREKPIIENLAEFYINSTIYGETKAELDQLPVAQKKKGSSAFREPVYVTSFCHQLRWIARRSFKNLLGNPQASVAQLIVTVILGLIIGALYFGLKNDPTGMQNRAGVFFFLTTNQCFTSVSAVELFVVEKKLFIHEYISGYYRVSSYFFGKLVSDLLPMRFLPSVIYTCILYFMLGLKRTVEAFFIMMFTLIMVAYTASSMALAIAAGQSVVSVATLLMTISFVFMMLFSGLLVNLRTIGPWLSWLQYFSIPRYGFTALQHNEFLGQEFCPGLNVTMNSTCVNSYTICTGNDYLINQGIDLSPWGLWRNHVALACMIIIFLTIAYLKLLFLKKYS
UniProt P11509, sequence (whole entry, looked up): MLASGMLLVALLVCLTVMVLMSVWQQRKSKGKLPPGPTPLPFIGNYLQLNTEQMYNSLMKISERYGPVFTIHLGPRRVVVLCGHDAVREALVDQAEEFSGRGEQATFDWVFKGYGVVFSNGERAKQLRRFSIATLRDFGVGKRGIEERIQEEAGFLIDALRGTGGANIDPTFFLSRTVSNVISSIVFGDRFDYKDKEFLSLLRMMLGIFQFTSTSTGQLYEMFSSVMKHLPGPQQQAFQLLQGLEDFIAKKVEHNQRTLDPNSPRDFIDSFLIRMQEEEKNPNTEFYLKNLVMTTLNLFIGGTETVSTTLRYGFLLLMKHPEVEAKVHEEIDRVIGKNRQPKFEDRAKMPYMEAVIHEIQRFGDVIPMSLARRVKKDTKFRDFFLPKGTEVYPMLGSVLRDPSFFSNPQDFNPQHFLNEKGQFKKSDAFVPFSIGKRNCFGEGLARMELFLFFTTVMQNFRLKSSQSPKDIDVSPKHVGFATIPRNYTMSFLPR
UniProt Q05421, sequence (whole entry, looked up): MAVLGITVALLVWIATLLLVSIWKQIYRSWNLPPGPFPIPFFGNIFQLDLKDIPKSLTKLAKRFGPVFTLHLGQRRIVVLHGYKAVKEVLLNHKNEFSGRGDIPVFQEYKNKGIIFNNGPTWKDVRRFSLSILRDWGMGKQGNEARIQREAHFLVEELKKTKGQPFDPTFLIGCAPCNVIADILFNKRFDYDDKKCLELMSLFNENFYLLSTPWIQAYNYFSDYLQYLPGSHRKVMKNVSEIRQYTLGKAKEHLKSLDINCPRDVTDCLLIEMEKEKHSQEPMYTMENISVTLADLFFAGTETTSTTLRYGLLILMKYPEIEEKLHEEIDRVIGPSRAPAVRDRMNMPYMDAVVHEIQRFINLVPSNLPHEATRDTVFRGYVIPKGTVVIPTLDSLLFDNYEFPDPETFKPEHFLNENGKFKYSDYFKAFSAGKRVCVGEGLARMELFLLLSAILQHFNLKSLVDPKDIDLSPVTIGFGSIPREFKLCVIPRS

CC[C@H](C)[C@H](NC(=O)[C@H](CCC(=O)O)NC(=O)[C@H](CO)NC(=O)[C@@H](NC(=O)[C@@H](N)CO)C(C)C)C(=O)N[C@@H](CCC(N)=O)C(=O)N[C@@H](CC(C)C)C(=O)N[C@@H](CCSC)C(=O)N[C@@H](Cc1cnc[nH]1)C(=O)N[C@@H](CC(N)=O)C(=O)N[C@@H](CC(C)C)C(=O)NCC(=O)N[C@@H](CCCCN)C(=O)N[C@@H](Cc1cnc[nH]1)C(=O)N[C@@H](CC(C)C)C(=O)N[C@@H](CC(N)=O)C(=O)N[C@@H](CO)C(=O)N[C@@H](CCSC)C(=O)N[C@@H](CCC(=O)O)C(=O)N[C@@H](CCCN=C(N)N)C(=O)N[C@H](C(=O)N[C@@H](CCC(=O)O)C(=O)N[C@@H](Cc1c[nH]c2ccccc12)C(=O)N[C@@H](CC(C)C)C(=O)N[C@@H](CCCN=C(N)N)C(=O)N[C@@H](CCCCN)C(=O)N[C@@H](CCCCN)C(=O)N[C@@H](CC(C)C)C(=O)N[C@@H](CCC(N)=O)C(=O)N[C@@H](CC(=O)O)C(=O)N[C@H](C(=O)N[C@@H](Cc1cnc[nH]1)C(=O)N[C@@H](CC(N)=O)C(=O)N[C@@H](Cc1ccccc1)C(=O)O)C(C)C)C(C)C
remaining intact compound (chymotrypsin (bovine pancreas); proteolytic degradation, HPLC-UV; 0.5 mg/mL, 0.25 h, pH 6.5, 37 °C, added: chymotrypsin with soybean trypsin inhibitor): 59%

N=C(N)NC(=N)NC1Cc2ccccc2C1
IC50 (SLC22A2; transporter uptake, inhibitor, radiometric): 53.4 µM and 53 µM

COc1ccc2[nH]c([S+]([O-])Cc3ncc(C)c(OC)c3C)nc2c1 (centres unmarked)
AUC(0-inf) (CYP2C19; human, plasma; oral, dose not given, day 12, fluoxetine treatment, added: fluoxetine): 8.5 ± 3.6 µM·h

O=C(O[C@H]1[C@@H]2C=CO[C@@H](O[C@@H]3O[C@H](CO)[C@@H](O)[C@H](O)[C@H]3O)[C@@H]2[C@@]2(CO)O[C@@H]12)c1ccc(O)cc1
intrinsic clearance (SLC22A8; uptake, substrate; HEK293 overexpressing SLC22A8; 10 min): 1.11 µL/min

O[C@@H](CS)[C@@H](O)CS (racemic)
Amax (CYP2E1; spectrophotometric titration, item: bis-thiolate complex; enzyme-enriched human liver microsomes; 375 pmol enzyme per mg protein): 0.39 µM

Cc1ccccc1C(=O)Nc1ccc(C(=O)Nc2ccc(Cl)cc2C(=O)CCC(=O)O)c(C)c1
IC50 (SLC22A8; estrone 3-sulfate transport; HEK293 overexpressing OAT3): 0.425 µM

N=C(N)NC(=N)NCC(c1ccccc1)c1ccccc1
IC50 (SLC22A1 (Homo sapiens, UniProt O15245); transporter uptake, inhibitor, radiometric): 85.5 µM and 86 µM

CC1=N[C@]2(C(=O)CO)[C@@H](C[C@H]3[C@@H]4C[C@@H](O)C5=CC(=O)C=C[C@]5(C)[C@H]4[C@@H](O)C[C@@]32C)O1
IC50 (CYP2C9; enzyme activity, inhibitor; human, liver microsomes; with preincubation): > 50 µM

COc1cc(OC)c(Cl)c(CCc2cnc3ccn(S(=O)(=O)c4c[nH]cn4)c3n2)c1Cl
inhibition (CYP2C9; enzyme activity, inhibitor; human, liver microsomes; 10 µM, 20 min, pH 7.4): 99%

O=C(O)c1cc(/N=N/c2ccc(S(=O)(=O)Nc3ccccn3)cc2)ccc1O
AUC(0-t) (Abcg2; substrate; Sprague-Dawley rat, male, plasma; oral, 2 mg/kg, added: 3,4'-dimethoxyflavone 5 mg/kg): 327 ± 36 ng·h/mL

CC[C@@]1(O)C(=O)OCc2c1cc1n(c2=O)Cc2cc3c(CN(C)C)c(O)ccc3nc2-1
Cmax fold increase (Abcg2; substrate; rat, plasma; oral, dose not given, added: elacridar constant infusion; relative to: with over without elacridar): 5 fold

O=C(O)c1ccc(O)c(O)c1
inhibition (SLC22A8; transporter uptake, inhibitor; HEK293; 100 µM): > 50%

O=c1[nH]c(=O)c(Cc2cccc(C(F)(F)F)c2)c([C@H]2CC[C@H](c3ccccc3)CC2)[nH]1
Cmax (CYP2C19; human, plasma; oral, 600 mg, day 1, single dose, fed, geometric mean): 492 ng/mL

Cc1noc(C)c1Cn1cc(N2C(=O)N(Cc3cccc(O)c3)C(C)(C)C2=O)cn1
inhibition (CYP2C9; enzyme activity, inhibitor, fluorescence; Sf9; 10 µM): 80%

CCCCCCCC=O
Ki (CYP2E1; competitive inhibitor; human liver S9; added: p-nitrophenol substrate): 13 ± 1 µM

Cc1coc2c1CC[C@@H](C)C2
remaining activity (Cytochrome P450 2A6 (CYP2A6, Homo sapiens, UniProt P11509); inactivator; 5 µM, 0 min, pH 7.4, 30 °C, added: NADPH, glutathione 10 mM): 115 ± 13%

O=C1Nc2ccc(Cl)cc2[C@@](C#CC2CC2)(C(F)(F)F)O1
inhibition (CYP2C19; enzyme activity, inhibitor; human, liver microsomes; 10 µM, pH 7.4): 35%

COc1cc(CCc2cnc3ccn(S(=O)(=O)c4cn(C)cn4)c3n2)cc(OC)c1
inhibition (CYP2C19; enzyme activity, inhibitor; human, liver microsomes; 10 µM, 20 min, pH 7.4): 7%

C=C
Km (Cytochrome P450 2E1 (Cyp2e1, Mus musculus, UniProt Q05421); substrate, headspace gas uptake, item: ethylene oxide formation; B6C3F1 mouse, pooled liver microsomes): 9.3 ± 3 µM

O=C(OOC(=O)c1ccccc1)c1ccccc1
maximal peptide depletion (cysteine peptide Ac-RFAACAA-COOH; DPRA RapidFire-MS/MS; 24 h, pH 7.5, added: 5.0 µM cysteine peptide): -107%

N=C(NN)Nc1ccc(C(=O)O)cc1
uptake (SLC22A2; HEK293 expressing SLC22A2; 100 µM, 10 min; relative to: parent compound without biguanide): decreased

CCC/C=C/C=O
Ki (CYP2E1; enzyme activity, competitive inhibitor; human liver S9; added: p-nitrophenol substrate): 6.7 ± 0.2 µM

O=C(O)CCCCCCCCCCCCCCC(=O)O
trough plasma concentration (OATP1B1; human, plasma; concentration not given, 12 h after first cyclosporine dose, genotype TT, added: oral cyclosporine plus pravastatin): 84.6 nM

CCCCCC=O
Ki (CYP2E1; competitive inhibitor; human liver S9; added: p-nitrophenol substrate): 26 ± 2 µM

O=C(O)CCCCCCCCCCCCC(=O)O
trough plasma concentration (OATP1B1; human, plasma; concentration not given, 12 h after first cyclosporine dose, genotype CC, added: oral cyclosporine plus pravastatin): 91.3 nM

O=C(O)c1ccc(O)cc1
IC50 (cysteine peptide Ac-RFAACAA-COOH; peptide depletion, DPRA RapidFire-MS/MS; 24 h, pH 7.5, room temperature, added: 5.0 µM cysteine peptide): 127 µM

CCc1oc2ccccc2c1C(=O)c1ccc(OC)cc1
IC50 (CYP2E1; p-nitrophenol hydroxylation, inhibitor; 10 min, added: p-nitrophenol 100 µM): 115 µM

O=c1[nH]c(=O)c2[nH]cnc2[nH]1
dehydrogenase activity (Xdh (Mus musculus, UniProt Q00519); substrate; wild type mouse liver cytosol; 50 µM, pH 7.8): 2.12 ± 0.48 nmol/min/mg protein

CCCCCCCCC=O
Ki (CYP2E1; competitive inhibitor; human liver S9; added: p-nitrophenol substrate): 8 ± 1 µM

Some of these lines once more:
O=C(OOC(=O)c1ccccc1)c1ccccc1
maximal peptide depletion (cysteine peptide Ac-RFAACAA-COOH; DPRA RapidFire-MS/MS; 24 h, pH 7.5, added: 5.0 µM cysteine peptide): -107%

O=C(O)c1ccc(O)c(O)c1
inhibition (SLC22A8; transporter uptake, inhibitor; HEK293; 100 µM): > 50%
